Results pooled from the literature.
Every numbered part comes from another study and shows a few of its results, in no order. Substitutions count along the parent as printed.

Study 1
Target: PABPC1L2, full length, GST fusion (mouse, UniProt A0ABA7IW68)
Technique: RNAcompete
Form: RNA
Matrix: in vitro
Concentration: 20 nM
Setting: 7-mer, probes averaged, single round
Reference: mean of 7-mers
Reading: higher = stronger binding
Target sequence (chain): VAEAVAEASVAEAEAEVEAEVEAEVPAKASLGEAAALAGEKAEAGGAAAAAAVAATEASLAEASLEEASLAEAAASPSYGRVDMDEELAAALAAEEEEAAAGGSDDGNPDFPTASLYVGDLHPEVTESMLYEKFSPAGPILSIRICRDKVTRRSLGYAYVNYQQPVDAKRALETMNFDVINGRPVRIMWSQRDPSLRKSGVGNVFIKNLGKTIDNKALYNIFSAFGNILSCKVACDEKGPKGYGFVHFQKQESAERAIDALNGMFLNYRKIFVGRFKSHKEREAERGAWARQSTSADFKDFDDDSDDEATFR
Strand	7-mer Z-score
CUACACU	-0.206
GAACACG	0.0605
ACGGGGA	0.236
UCUUCCG	-0.514
UUAGGAC	-0.0989
AUUUUGU	-0.258
UCUCCUA	-0.289
CGAUAUG	-0.0464

Study 2
Target: Krueppel-like factor 3, full length (KLF3, Homo sapiens, UniProt P57682, residues 1-345)
UniProt P57682, sequence (whole entry, looked up): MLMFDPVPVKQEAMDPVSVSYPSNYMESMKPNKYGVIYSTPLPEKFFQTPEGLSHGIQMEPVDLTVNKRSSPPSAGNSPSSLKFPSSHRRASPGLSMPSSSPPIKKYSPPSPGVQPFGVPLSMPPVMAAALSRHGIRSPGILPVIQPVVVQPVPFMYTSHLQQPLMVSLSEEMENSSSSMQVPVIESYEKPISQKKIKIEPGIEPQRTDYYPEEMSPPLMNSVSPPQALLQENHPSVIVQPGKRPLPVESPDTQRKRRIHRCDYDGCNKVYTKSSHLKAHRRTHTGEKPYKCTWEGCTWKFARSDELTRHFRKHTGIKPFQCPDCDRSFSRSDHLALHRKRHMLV
Technique: protein-binding microarray
Form: hairpin DNA
Matrix: in vitro
Concentration: not given
Setting: whole hairpin DNA, median over replicate spots
Reference: not given
Reading: higher = stronger binding
Strand	median fluorescence
GAGGCCCACCGCGCCCAGCCTCCTGGCTGGGCGCGGTGGGCCTCACACTC	9050 a.u.
GAGGCCGACCACGCGCAGCCTCCTGGCTGCGCGTGGTCGGCCTCACACTC (5mC at 14 30)	22500 a.u.
GAGGCCGACCGCCGCCAGCCTCCTGGCTGGCGGCGGTCGGCCTCACACTC (5mC at 13)	8340 a.u.
GAGGCCGACCGCGCCCGGCCTCCTGGCCGGGCGCGGTCGGCCTCACACTC	8610 a.u.
GAGGCCGACCACGCCCAGCCTCCTGGCTGGGCGTGGTCGGCCTCACACTC (5mC at 9)	15000 a.u.
GAGGCCGACCACGCCCGGCCTCCTGGCCGGGCGTGGTCGGCCTCACACTC (5mC at 16 28)	10500 a.u.
GAGGCCGAACGCGCCCAGCCTCCTGGCTGGGCGCGTTCGGCCTCACACTC	8270 a.u.
GAGGCCGACGGCGCCCAGCCTCCTGGCTGGGCGCCGTCGGCCTCACACTC (5mC at 9 35)	8320 a.u.

Study 3
Target: Prothrombin, mature alpha-thrombin (F2, Homo sapiens, UniProt P00734)
Technique: aptamer microarray, sandwich
Form: DNA with 2'F-ANA
Matrix: in vitro
Concentration: 200 nM
Setting: whole 15-mer aptamer, many near background
Added: Cy3 exosite-II aptamer, 400 nM
Reading: higher = stronger binding
Strand: GGTTGGTGTGGTTGG
Modification	mean fluorescence intensity
2'F-ANA at 4 6 7 11 12 14	93.5 a.u.
2'F-ANA at 1 3 4 6 7 8 9 11 14 15	69.1 a.u.
2'F-ANA at 1 3 4 5 6 7 11 12 13 15	70.4 a.u.
2'F-ANA at 1 2 3 4 5 8 13 14	80.8 a.u.
2'F-ANA at 3 9 10 11 12 14 15	357 a.u.
2'F-ANA at 1 2 4 5 6 15	55.2 a.u.
2'F-ANA at 1 3 4 5 6 7 8 9 11 12	101 a.u.
2'F-ANA at 1 2 5 8	64 a.u.

Other studies, line by line
Starting sequence: viral docking peptide; KGVKRKLFAEDSS; partner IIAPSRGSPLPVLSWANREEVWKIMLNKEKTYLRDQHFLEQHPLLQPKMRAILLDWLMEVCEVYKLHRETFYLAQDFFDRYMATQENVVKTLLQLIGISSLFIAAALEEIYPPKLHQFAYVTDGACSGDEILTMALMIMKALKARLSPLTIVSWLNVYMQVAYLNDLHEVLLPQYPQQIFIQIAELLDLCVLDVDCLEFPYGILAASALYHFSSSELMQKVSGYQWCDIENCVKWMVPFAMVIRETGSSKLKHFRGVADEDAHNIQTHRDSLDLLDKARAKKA
Substitution	target	assay	test system	conditions	how to read	measurement	result
G2I	CCNE1, cyclin fold, Cln2 fusion (human)	yeast growth competition, sequencing	yeast	strong parent motif	reference: not given, higher = stronger binding	normalised enrichment score	6.06

Excerpt of the above (study 1):
Strand	7-mer Z-score
CGAUAUG	-0.0464
UCUUCCG	-0.514
UUAGGAC	-0.0989
